# Experimental data from different studies.
# Several values in a cell are separate wells, animals, samples, runs or records. ± marks the error that the study gave.
SMILES,organism,assay,test system,conditions,scale,quantity,result
O=C(Nc1cccc(CO)c1)c1cc(-c2ccccc2)n(-c2ccccc2)n1,dengue virus 2,"viral replication, immunofluorescence","Vero, New Guinea C",,,EC50,4100 nM
Cc1cc(C(=O)Nc2nc3cccc(C)c3n2[C@H]2CCCCN(C(=O)/C=C/CN(C)C)C2)ccn1,Trypanosoma brucei gambiense,"growth inhibition, CellTiter-Glo",STIB930,48 h,,EC50,41 nM and 73 nM and 88 nM and 29 nM
CC1(F)CN(C(=O)Cn2c(=O)c(C(=O)NCc3ccc(Cl)cc3)cc3nc(N4CCN(CCN)C4=O)cnc32)C1,human cytomegalovirus,viral cytopathic effect,"MRC-5, Davis",168 h,,EC50,200 nM
O=C(Nc1ccc([N+](=O)[O-])cc1O)Nc1ccccc1Br,Cryptosporidium parvum,"parasite growth, qRT-PCR",HCT-8,44 h,,EC50,7720 nM
Cc1ccc2c(c1)nc(NC(=O)c1cccc(C(F)(F)F)c1)n2[C@H]1CC[C@H](N)CC1,Trypanosoma cruzi,intracellular amastigote growth,Tulahuen,,,EC50,1320 nM and 1220 nM
CC(CC1CC2=C(CC1(C)C)C(C)(C)CCC2)=NNC(N)=S (stereo not shown),Trypanosoma cruzi,"reporter mRNA translation, inhibitor, item: capped polyadenylated Renilla luciferase mRNA",cell-free extract,concentration not given,relative to: positive over negative control,translation activity,106% and 124% and 102% and 97.3%
NC(=O)c1cccc(NC(=O)c2cc(-c3ccc(Br)cc3)n(-c3ccccc3)n2)c1,dengue virus 2,"viral replication, immunofluorescence","Vero, New Guinea C",,,EC50,8400 nM
CC1=C[C@@H](O/C=C2/C(=O)O[C@H]3c4ccccc4C[C@@H]23)OC1=O,Arabidopsis thaliana,seed germination,Col-0,,,EC50,160 nM
COc1ccc(C(=O)OC2CCN(C)CC2)cc1,Trypanosoma cruzi,"reporter mRNA translation, inhibitor, item: Renilla luciferase mRNA",cell-free extract,"concentration not given, test 2",relative to: positive over negative control,translation activity,98.3%
CC1=C(C)[C@@H](Oc2c(F)cc3c(C)cc(=O)oc3c2F)OC1=O,Phelipanche ramosa,"seed germination, stimulant",seeds,,,EC50,7 nM
Cn1c(=O)c(-c2ccccc2Cl)cc2cnc(Nc3cccc(S(C)(=O)=O)c3)nc21,Cryptosporidium parvum,"parasite growth, immunofluorescence count","HCT-8, IOWA",48 h,,EC50,42 ± 29 nM
CC1=CC(Oc2c(F)cc3c(C)cc(=O)oc3c2F)OC1=O (racemic),Phelipanche ramosa,"seed germination, stimulant",seeds,,,EC50,46 nM
CN1CCCN(c2cnc3c(cc(C(=O)NCc4ccc(Cl)cc4)c(=O)n3CC(=O)N3CC(C)(F)C3)n2)C1=O,human cytomegalovirus,"viral replication, GFP reporter","MRC-5, AD169-GFP",,,EC50,1890 nM
